Results from different studies.
A part holds a random share of what one study measured.

Series 1
Target: RNA binding protein fox-1 homolog 2, RRM domain, GST-SBP tag (RBFOX2, Homo sapiens, UniProt O43251-10, residues 100-194)
Method: RNA Bind-n-Seq
Form: RNA
Matrix: in vitro
Concentration: 365 nM
Notes: natural RNA segment, single round, ends assumed
Relative to: no-protein control
Direction: higher = stronger binding
Constant ends, left off below: GGGAGUUCUACAGUCCGACGAUC … UGGAAUUCUCGGGUGCCAA
Strand | RBNS enrichment (R)
AGGCUAGGGAGGGUUGGUUACAGGGUGGCAGGGUCCCAGGUCGGAUGACAAGCUGUCUCCUGCGGAAGUGUAGCUUGUGGGUAUAGAGUUCUGUCUGCACCUGCCCUCUA | 0.948
AAUUUGAUAUGCUGUUUAGUCACUACAGUGCCCUCAAAGGGCAGAAGUUGCAGCCUUUUUUAUAUUGCCUGCCAAAAUUUGAAGUAUUAGAAGAAAGUGUGCCAUGAGAG | 0.913
CAUAUUGCAAUUAUGAUUUUAGAAGGAACUAAGCAUUUUACUCACACCCACAGCAGCAAGAAUGACCUCCUGCAGCAGAUAUUCCACCUGUAAUAGCACUUUGGAACUGU | 3.55
UGGCCACGUUGCAAUAAAAAUUGUGGCAUAUUACAGAACGUUGCCUUGUUUUCCUUGGAAAUUUUGCAAAAUGUUAUGUGAAACAACUUCUAGGGUAAAAACAGCUAUUA | 0.382
CCCUUGUCUACCCUGCUUUAAGAGGGUGAAUGACGGAAUAGACUUUAUGGUGUCAGUGAGUAGUUUGUAUUAGAAUAAUUUUCCUAUUUCCUACCUUGCUUUCUAGAAAG | 0.363

Series 2
Target: Centromere-binding protein 1, full length, N-terminal tag (CBF1, Saccharomyces cerevisiae, UniProt P17106, residues 1-351)
UniProt P17106, sequence (whole entry, looked up): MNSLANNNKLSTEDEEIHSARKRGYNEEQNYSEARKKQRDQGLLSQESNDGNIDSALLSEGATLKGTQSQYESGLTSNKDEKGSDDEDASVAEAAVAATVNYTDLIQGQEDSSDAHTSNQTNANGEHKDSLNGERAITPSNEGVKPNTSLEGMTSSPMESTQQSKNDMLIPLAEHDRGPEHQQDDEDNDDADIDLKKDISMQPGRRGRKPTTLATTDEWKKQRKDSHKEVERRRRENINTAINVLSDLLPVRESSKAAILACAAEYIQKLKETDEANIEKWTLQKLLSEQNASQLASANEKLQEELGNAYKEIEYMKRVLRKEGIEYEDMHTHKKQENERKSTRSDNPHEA
Method: protein-binding microarray
Form: double-stranded DNA, one strand shown
Matrix: in vitro
Concentration: 0.8 µM
Notes: whole 60-bp probe, no competitor
Direction: higher = stronger binding
Constant ends, left off below: … GTCTTGATTCGCTTGACGCTGCTG
Strand | fluorescence intensity
CTACTGCATAATTCTGATGCAATATCCAACAACTTC | 597 a.u.
CTAAAAAAACAAAAGTAGATCACAAGTTTTCCATTC | 561 a.u.
CTATAATAGATAGTTGTGGTGATCATATTATAATTC | 515 a.u.
CTATTATCTTGGCAAAACGTGGGGCTGGAACTTTTC | 616 a.u.
CTACTCAAGGTGAGTCACGATGCAGAACTGGAATTC | 809 a.u.

Series 3
Target: Interferon regulatory factor 7, full length, phosphomimetic (IRF7, Homo sapiens, UniProt Q92985, residues 1-503, S101K/S471D/S472D/S475D/S476D/S477D/S483D/S484D/S487D)
Method: protein-binding microarray
Form: double-stranded DNA, one strand shown
Matrix: in vitro
Concentration: 250 nM
Notes: 60-bp whole probe
Together with: salmon DNA 0.4 mg/ml
Relative to: random background probes
Direction: higher = stronger binding
Constant ends, left off below: GCCTAGCAC … GTCTTGATTCGCTTGACGCTGCTG
Construct (chain): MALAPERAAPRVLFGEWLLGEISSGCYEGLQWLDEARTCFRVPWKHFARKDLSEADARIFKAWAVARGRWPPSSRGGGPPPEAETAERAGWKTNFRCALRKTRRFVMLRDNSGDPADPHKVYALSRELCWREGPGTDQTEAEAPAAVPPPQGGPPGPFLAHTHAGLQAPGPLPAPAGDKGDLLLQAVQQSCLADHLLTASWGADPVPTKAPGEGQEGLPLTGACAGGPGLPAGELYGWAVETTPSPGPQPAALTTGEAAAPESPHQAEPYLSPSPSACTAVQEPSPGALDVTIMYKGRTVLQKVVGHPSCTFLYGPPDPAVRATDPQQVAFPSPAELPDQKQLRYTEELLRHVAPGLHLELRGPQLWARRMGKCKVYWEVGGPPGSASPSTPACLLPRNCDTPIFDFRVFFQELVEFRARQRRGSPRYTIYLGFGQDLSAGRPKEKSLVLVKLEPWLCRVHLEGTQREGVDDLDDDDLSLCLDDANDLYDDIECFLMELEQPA
Strand | log fluorescence [z-score]
TTAGGTTTCGGGCATCGGTTAGTGCTA | 2.34
TTAGAACTGGGGACTCGATTAGTGCTA | 0.436
GACAGTATCCTACTGCTGACGTGCTAG | 0.114
GACGGTATCGACTAACGGGACGTGCTA | 0.0814
TTAGGTATCGACACTGAGTTAGTGCTA | -0.194

Single results of other studies
Substance | target | assay | test system | conditions | how to read | measurement | value
PhoQ, residues 284 288 289 292 302 303 QWQEDG | PhoP, residues 12 14 15 18 19 SYFRT (Escherichia coli, UniProt P23836) | Sort-seq, measured: YFP reporter | E. coli | PhoQ-PhoP variant library, together with: 10 µM Mg2+ | relative to: high Mg2+ state, higher = stronger signaling | fold induction | 3.15

Some of these lines once more (series 2):
Strand | fluorescence intensity
CTAAAAAAACAAAAGTAGATCACAAGTTTTCCATTC | 561 a.u.
CTATAATAGATAGTTGTGGTGATCATATTATAATTC | 515 a.u.
